Published values gathered from unrelated publications.
A part holds a random share of what one study measured. Changes are numbered by the printed parent chain.

Series 1
Target: ABI1, truncated, D143A, DHFR fusion (Arabidopsis thaliana)
Method: DHFR PCA, deep sequencing
Medium: yeast
Notes: methotrexate growth selection, single substitutions
Together with: (+)-ABA 0.0091 µM
Relative to: wild-type fitted maximum
Direction: higher = stronger binding
Starting sequence: PYL1, truncated, DHFR fusion (Arabidopsis thaliana); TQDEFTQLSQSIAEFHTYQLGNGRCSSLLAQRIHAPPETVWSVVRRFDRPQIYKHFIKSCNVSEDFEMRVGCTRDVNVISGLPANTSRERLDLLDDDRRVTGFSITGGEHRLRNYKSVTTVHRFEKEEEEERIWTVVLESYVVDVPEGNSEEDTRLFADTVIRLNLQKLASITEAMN; partner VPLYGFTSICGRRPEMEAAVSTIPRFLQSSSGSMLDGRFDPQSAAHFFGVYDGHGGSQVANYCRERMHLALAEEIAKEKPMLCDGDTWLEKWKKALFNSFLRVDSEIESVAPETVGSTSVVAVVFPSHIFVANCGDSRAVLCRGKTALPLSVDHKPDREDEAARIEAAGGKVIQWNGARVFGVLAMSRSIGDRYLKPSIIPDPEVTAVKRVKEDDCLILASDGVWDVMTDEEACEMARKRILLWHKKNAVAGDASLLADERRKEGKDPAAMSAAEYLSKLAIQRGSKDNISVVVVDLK
`T135S` — result for “relative binding score”: 6.34%.
`A13W`: “relative binding score” -0.309%.
`V118I` — result for “relative binding score”: 20.6%.
For `H34R`, “relative binding score” read 27.8%.
`W134L` — result for “relative binding score”: 14.1%.
Under “relative binding score”, `H110K` is recorded as 24.2%.
`E14I` — result for “relative binding score”: -4.34%.
`E152D` — result for “relative binding score”: 14.3%.

Series 2
Target: Transcriptional repressor CTCF (CTCF, Homo sapiens, UniProt P49711, residues 1-727, full length assumed)
UniProt P49711, sequence (whole entry, looked up): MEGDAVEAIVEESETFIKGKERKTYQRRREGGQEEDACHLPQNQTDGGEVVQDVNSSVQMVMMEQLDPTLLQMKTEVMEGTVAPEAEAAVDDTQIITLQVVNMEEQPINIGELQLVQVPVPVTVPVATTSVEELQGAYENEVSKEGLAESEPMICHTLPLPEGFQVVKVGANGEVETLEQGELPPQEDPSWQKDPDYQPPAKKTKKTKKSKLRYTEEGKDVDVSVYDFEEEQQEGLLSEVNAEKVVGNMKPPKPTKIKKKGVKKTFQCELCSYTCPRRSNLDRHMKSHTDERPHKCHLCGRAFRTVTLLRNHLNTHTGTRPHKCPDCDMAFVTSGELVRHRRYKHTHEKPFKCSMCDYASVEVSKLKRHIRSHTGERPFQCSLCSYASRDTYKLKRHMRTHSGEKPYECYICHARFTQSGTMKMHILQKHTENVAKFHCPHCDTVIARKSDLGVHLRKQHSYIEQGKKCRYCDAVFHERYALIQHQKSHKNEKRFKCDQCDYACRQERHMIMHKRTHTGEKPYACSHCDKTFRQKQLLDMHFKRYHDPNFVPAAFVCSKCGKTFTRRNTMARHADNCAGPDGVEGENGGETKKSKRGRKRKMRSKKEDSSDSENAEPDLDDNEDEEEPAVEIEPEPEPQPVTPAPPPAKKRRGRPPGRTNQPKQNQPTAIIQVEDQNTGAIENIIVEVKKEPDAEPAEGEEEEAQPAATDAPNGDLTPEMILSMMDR
Method: protein-binding microarray
Form: double-stranded DNA, one strand shown
Medium: in vitro
Concentration: not given
Notes: k-mer, scored over probes, only values ≥0.25
Direction: higher = stronger binding
With `CTTTATTA` the E-score was 0.275.
For `ATATATTG`, the E-score was 0.271.
For `ATTTGTTA`, the E-score was 0.271.
`GTACATAA` gave an E-score of 0.265.
`TCAACAAA` has an E-score of 0.258.
`GTGAACAA` gave an E-score of 0.32.
With `TATAGTAA` the E-score was 0.304.

Series 3
Target: POU, POU domain (Salpingoeca helianthica)
Method: Spec-seq
Form: double-stranded DNA, one strand shown
Medium: in vitro
Concentration: not given
Notes: whole probe, mean of replicates
Relative to: not given
Direction: lower = stronger binding
Shared flanks, not repeated: GAGTCGTCTCGTCAGCAC … ATCCGTAGAGCACTCAGGTC
Target sequence (chain): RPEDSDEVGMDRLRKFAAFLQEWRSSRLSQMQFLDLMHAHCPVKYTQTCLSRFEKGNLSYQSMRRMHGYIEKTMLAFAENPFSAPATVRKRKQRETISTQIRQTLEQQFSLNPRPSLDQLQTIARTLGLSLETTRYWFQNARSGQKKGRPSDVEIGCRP
`ATAAGG` — result for “relative binding energy”: 1.18 ln ratio.
`CACTTA`: “relative binding energy” 0.147 ln ratio.
For `ATGATT`, “relative binding energy” read -0.257 ln ratio.
`ATCGGC`: “relative binding energy” 1.27 ln ratio.
For `GGTGTA`, “relative binding energy” read 0.76 ln ratio.
For `ATCCTA`, “relative binding energy” read 0.743 ln ratio.

Other studies, line by line
With `PhoQ, residues 284 288 289 292 302 303 AEGLLW` the fold induction was 1.78 (PhoP, residues 12 14 15 18 19 VHSCL (Escherichia coli, UniProt P23836); Sort-seq, refers to: YFP reporter; E. coli; PhoQ-PhoP variant library, together with: 10 µM Mg2+; relative to: high Mg2+ state, higher = stronger signaling).

For quick reference, copied from above (series 1):
`W134L` — result for “relative binding score”: 14.1%.
Under “relative binding score”, `H110K` is recorded as 24.2%.
`E152D` — result for “relative binding score”: 14.3%.
